Measured values gathered from unrelated publications.
Every numbered part comes from another study and shows a few of its results, in no order. Substitutions count along the parent as printed.

Set 1 — technique: universal PBM; molecule type: double-stranded DNA, one strand shown; sample: in vitro; concentration: not given; direction: higher = stronger binding; quantity: E-score
Target: Sal-like protein 4, full length isoform B (SALL4, Homo sapiens, UniProt Q9UJQ4-2, residues 1-616)
Setting: 8-mer, flanks averaged, mean of replicates
GGATTTAC: 0.11
CCCCCCCG: -0.362
ACTCATGC: -0.0301
AAGAGGCT: -0.00875
CAAGGAGG: -0.113
CCGCAGCC: -0.297
CATGAATG: 0.182
GGTGGATA: 0.0211
GAGAAAGA: 0.103
TCGGCGCA: -0.23
CAGTCGGC: -0.312
ACTGGCCA: -0.156
AGCGCACG: -0.266
ACTGTAAT: 0.238
GGATGGCA: 0.0511
CGTCGATA: 0.0272
CAGACTCC: -0.274
TGTTCTAA: 0.301
CTTCTAAA: 0.129
AGGATCTC: -0.129
AGGACGTC: -0.0873
TACAACTA: 0.0832
CAAGGGGA: -0.142
CTGACGCA: -0.191
ATTCCCAC: 0.0642

Set 2 — technique: protein-binding microarray; molecule type: double-stranded DNA, one strand shown; sample: in vitro; concentration: 2200 nM top; setting: 60-bp whole probe; added: salmon DNA 0.4 mg/ml; baseline: random background probes; direction: higher = stronger binding; quantity: fitted relative affinity; shared flanks, not repeated: GCCTAGCAC … GTCTTGATTCGCTTGACGCTGCTG
Target: Interferon regulatory factor 7, full length, phosphomimetic (IRF7, Homo sapiens, UniProt Q92985, residues 1-503, S471D/S472D/S475D/S476D/S477D/S483D/S484D/S487D)
Chain of UniProt Q92985 (whole entry, unmodified, looked up): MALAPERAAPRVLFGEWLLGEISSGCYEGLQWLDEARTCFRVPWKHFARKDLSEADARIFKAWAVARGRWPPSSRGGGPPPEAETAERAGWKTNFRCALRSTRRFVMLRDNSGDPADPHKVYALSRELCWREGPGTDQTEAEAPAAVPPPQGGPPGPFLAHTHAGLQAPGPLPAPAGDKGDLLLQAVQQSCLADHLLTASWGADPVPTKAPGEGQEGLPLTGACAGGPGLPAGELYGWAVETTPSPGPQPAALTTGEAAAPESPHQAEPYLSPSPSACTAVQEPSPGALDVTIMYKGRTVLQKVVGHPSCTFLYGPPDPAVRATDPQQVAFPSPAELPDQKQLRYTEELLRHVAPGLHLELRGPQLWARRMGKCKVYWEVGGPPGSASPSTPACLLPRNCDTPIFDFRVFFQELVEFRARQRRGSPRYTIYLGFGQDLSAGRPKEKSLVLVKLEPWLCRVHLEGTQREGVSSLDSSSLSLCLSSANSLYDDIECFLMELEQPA
GACGATTTCGGGACTTGAGACGTGCTA: 1.29 z-score
GTAGGTCTCCTTCTCCTTTAGTGCTAG: 1.19 z-score
GACGGTATAGGGACTGGGGACGTGCTA: -0.665 z-score
GACGGACTGGGACTGGGCACGTGCTAG: -1.11 z-score
TTAGATTTCTGTCTCGATTAGTGCTAG: 1.06 z-score
GTAGGTTTCGGTTTCGGTTAGTGCTAG: 16.8 z-score
TTAGGTATCGGGAATCGGTTAGTGCTA: 0.137 z-score
TAGTTGCAAGCCATGGGTGGGTGCTAG: -0.42 z-score
TTAGGATTGCTACTGCTTTAGTGCTAG: 0.0597 z-score
TTAGGACTGGGGAATCGGTTAGTGCTA: -0.334 z-score
TCAACTTTGACTTAAGAACTGTGCTAG: -0.0449 z-score
TTAGGTTCCGGTTTCGGTAAGTGCTAG: 5.25 z-score
GACGGTCTCATTTTCCTGACGTGCTAG: 1.69 z-score
TGAAATCTCTTTCCTTACTTGTGCTAG: 1.2 z-score
GACGGTATCGGGTTTGGGGACGTGCTA: 0.087 z-score
TTAGGTTTCGGGTATCGCTTAGTGCTA: 5.95 z-score
TCAGCTCTGTGCATAGTACTGTGCTAG: 0.499 z-score
ACATATTTGTTTCCATTTTCGTGCTAG: 4.65 z-score
ACTGAAATCACCCTTGGAAGTGTGCTA: 0.192 z-score
CACGGTTTCGGGACTGGGGACGTGCTA: 3.84 z-score
TTAGATTTCAGTATCGATTCGTGCTAG: 1.95 z-score
TAAAATTTTGCTTCTAGAACGTGCTAG: 0.114 z-score
TTTCATATATATATGAATATGTGCTAG: 2.24 z-score
GACGGTATCGACTTTAGGGACGTGCTA: -0.179 z-score
TTAGGTTTCGGGACTGGGTTCGTGCTA: 3.42 z-score

Set 3 — technique: RNA Bind-n-Seq; molecule type: RNA; sample: in vitro; concentration: 365 nM; baseline: no-protein control; direction: higher = stronger binding; quantity: RBNS enrichment (R)
Target: RNA binding protein fox-1 homolog 2, RRM domain, GST-SBP tag (RBFOX2, Homo sapiens, UniProt O43251-10, residues 100-194)
Setting: natural RNA segment, single round, ends assumed
Shared flanks, not repeated: GGGAGUUCUACAGUCCGACGAUC … UGGAAUUCUCGGGUGCCAA
Construct (chain): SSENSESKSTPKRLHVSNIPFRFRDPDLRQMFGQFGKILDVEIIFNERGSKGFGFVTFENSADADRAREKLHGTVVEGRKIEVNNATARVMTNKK
CGGAGUUUUGCUCUUGUUGCCCAGGCUGGAGUGCAGUGACACAAUCUCUACUCACUGCAACCUCCACCUCCCGGGUUCAAGCAAUUCUCCUGCCUCAGCCUCCUGAGUAG: 0.263
UAAAGACCAAAAACUGUGCUGGGAAGAUAUGCCCCACCUAUCUUUGGUACAUGGUAGGUGUUGUGAUGGAAAUGGAAAGCAUUGGUUAAAUGGAAUAGAGGUCUUGAUCU: 0.714
UCCUUGUAAGUUGGAAAGAAUGUUUAUUUAACAGAUCUUGUAUUACAUUUAUUUCCCCCUGAUGUGGAAAAUCUAAAAGCACAGAAUGAUGGGAACAAGAGUAUGAUGUG: 2.07
UGAUUUCCUGACUUUAUGUUCUUGUGUUAUAAUGUUAUCCUAACCUCCAAAGAUAUUUGCACUGCUUUUAAUUAUUGCUGUGUAUCUAUUUCUUUGGGUAUUAUAACUGU: 0.267
CAUUUCCUCUUUCCAAGACCAACCUACAAUUUUCCCUUGAUAACCAUAUAAAUUCUGAUUUAAGGUCCUAAAUUCUUAACCUGGAACUGGAGUUGGCAAUACCUAGUUCU: 0.536
GAUGCUUCUACUGUUAUGUUUUAUCUGCCCAUUUAUCUUUCUUAGUUACCAGGAGAAAUGUGUGACACCUAUAUUAUAAUGAAAACAAUCUCAUUACUUAUAGUUUAUCU: 1.06
CUGCUUUUCCUAUAGUCAGAGGGCUCCAAGGUAGAACUCUCUAAGUCCCUCUCAAUGGCACUCUUUGCCUAGACCAAACUAAUGACCAAACAGUAAUCAAUCUAUCACUG: 0.406
UACCGCUUCAGAGUGCAUGGGGAGCCCGCCCACUAGCCCUGCUUACUGGUGCCUGCUGCCAGCCAUCUGGGAGUGGGUGAACAGCACCCCGCCGCUUCCCCCACACGCUU: 0.29
CAUUGAGUUUAAUUCAGCAACAACAAAAAAUACAUAUAAAACUAGAAAGGGACUUUUUUUCCUUUCUUUUCAUAAUGAAGCAGAUCAACUUAAAGGAUAAUAAAAUUUUU: 0.379
CACUUCUUGAAGAAGUGCAGUUGUAAAUAAGCCAUGUAAAAUGCCUUUUUAAAGUUUAAUUUUAUAGCUGGCUCCACAUCAAAGUGAGGGCCUCAUAUGUUAGAUCACCU: 0.246
CCUCCCUGGCCCCAGGCAGCCCUUUUCCCUCCAGUGGCACCUCCUGGAAACAGUCCACUUGGGCGCAAAACCCAGUGCCUUCCAAAUGAGCUGCAGUCCCCAGGCCAUGA: 0.543
AAUGGACCCUUUUGCUUUUCUGAUUUUUAGUUCUGACAUGUAUAUAUUGCUUCAGUAGAGCCACAAUAUGUAUCUUUGCUGUAAAGUGCAAGGAAAUUUUAAAUUCUGGG: 0.851

Set 4 — technique: protein binding microarray; molecule type: double-stranded DNA, one strand shown; sample: in vitro; concentration: not given; baseline: not given; direction: higher = stronger binding; quantity: E-score
Target: Histone acetyltransferase KAT6A, winged helix 2, GST fusion (KAT6A, Homo sapiens, UniProt Q92794, residues 85-181)
Setting: 8-mer, flanks averaged, mean of 2 arrays, mostly near background
Construct (chain): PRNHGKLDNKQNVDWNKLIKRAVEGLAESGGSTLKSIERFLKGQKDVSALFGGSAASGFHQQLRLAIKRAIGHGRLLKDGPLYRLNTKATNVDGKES
AGCTCAGG: 0.0965
GTAAAAGA: 0.0352
GAACGTAC: -0.201
GGGCCGAC: 0.078
GATAATAC: 0.13
ATCATGCC: -0.0662
GATGCTAC: -0.038
ATGGCCAA: -0.0941
ATCTCTAA: -0.0219
ATTGGTAC: -0.112
CACTGTGC: 0.058
AGGTAAAA: 0.0315
CATCTACG: -0.0899
AGTAAACG: -0.163
GGCGGTTA: -0.00322
ACCATAGG: -0.115
CCGGTAAG: 0.11
CGTGTAGC: -0.0557
CAATCAGA: -4e-05
ATCCTTGG: -0.134
GCGCCCGC: 0.267
GGAGAGAA: 0.0203
ACTGATCC: -0.077
AGAGGCTA: -0.297
GGGGCTAA: 0.107

Set 5 — target: CCNE1, cyclin fold, Cln2 fusion (human); technique: yeast growth competition, sequencing; sample: yeast; setting: strong parent motif; baseline: not given; direction: higher = stronger binding; quantity: normalised enrichment score
Starting sequence: E2F1 docking peptide (human); PPVKRRLDFETDH; partner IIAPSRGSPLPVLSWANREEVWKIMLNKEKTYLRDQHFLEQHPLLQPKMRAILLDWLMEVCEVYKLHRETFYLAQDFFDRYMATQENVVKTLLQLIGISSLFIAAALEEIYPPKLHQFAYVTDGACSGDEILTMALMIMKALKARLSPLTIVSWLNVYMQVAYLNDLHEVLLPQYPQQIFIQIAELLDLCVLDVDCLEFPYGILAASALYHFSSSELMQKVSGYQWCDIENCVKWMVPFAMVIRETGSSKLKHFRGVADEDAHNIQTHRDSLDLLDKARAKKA
E10H: 6.18
D12M: 6.28
R6S: 3.08
D8R: 5.77
F9Y: 3.45
R6L: 3.34
K4A: 4.92
D8I: 4.92
E10T: 6.15
F9E: 0.658
P2Y: 5.97
R6D: 0.434
T11A: 5.74
K4W: 2.41
D8L: 6.19
R5V: 0.758
P2W: 5.86
D8K: 6.26
R5D: -0.00345
D12S: 6.43
T11P: 6.16
E10V: 6.14
T11S: 6
E10N: 6.64

Other studies, line by line
PhoQ, residues 284 288 289 292 302 303 MLMVEA
fold induction (PhoP, residues 12 14 15 18 19 NQFFI (Escherichia coli, UniProt P23836); Sort-seq, refers to: YFP reporter; E. coli; PhoQ-PhoP variant library, added: 10 µM Mg2+; baseline: high Mg2+ state, higher = stronger signaling): 18

Repeated from above (set 2):
GACGATTTCGGGACTTGAGACGTGCTA: 1.29 z-score
GTAGGTCTCCTTCTCCTTTAGTGCTAG: 1.19 z-score
GACGGTATAGGGACTGGGGACGTGCTA: -0.665 z-score
GACGGACTGGGACTGGGCACGTGCTAG: -1.11 z-score
TTAGATTTCTGTCTCGATTAGTGCTAG: 1.06 z-score
GTAGGTTTCGGTTTCGGTTAGTGCTAG: 16.8 z-score
TTAGGTATCGGGAATCGGTTAGTGCTA: 0.137 z-score
TAGTTGCAAGCCATGGGTGGGTGCTAG: -0.42 z-score
TTAGGATTGCTACTGCTTTAGTGCTAG: 0.0597 z-score
TTAGGACTGGGGAATCGGTTAGTGCTA: -0.334 z-score
TCAACTTTGACTTAAGAACTGTGCTAG: -0.0449 z-score
TTAGGTTCCGGTTTCGGTAAGTGCTAG: 5.25 z-score
GACGGTCTCATTTTCCTGACGTGCTAG: 1.69 z-score
